# Measurements from different studies.
# Numbered parts are unrelated; each lists some results of a single study. “And” joins repeats or separate records; there may be more than shown.
# Chain of UniProt Q5XXA6 (whole entry, unmodified, looked up): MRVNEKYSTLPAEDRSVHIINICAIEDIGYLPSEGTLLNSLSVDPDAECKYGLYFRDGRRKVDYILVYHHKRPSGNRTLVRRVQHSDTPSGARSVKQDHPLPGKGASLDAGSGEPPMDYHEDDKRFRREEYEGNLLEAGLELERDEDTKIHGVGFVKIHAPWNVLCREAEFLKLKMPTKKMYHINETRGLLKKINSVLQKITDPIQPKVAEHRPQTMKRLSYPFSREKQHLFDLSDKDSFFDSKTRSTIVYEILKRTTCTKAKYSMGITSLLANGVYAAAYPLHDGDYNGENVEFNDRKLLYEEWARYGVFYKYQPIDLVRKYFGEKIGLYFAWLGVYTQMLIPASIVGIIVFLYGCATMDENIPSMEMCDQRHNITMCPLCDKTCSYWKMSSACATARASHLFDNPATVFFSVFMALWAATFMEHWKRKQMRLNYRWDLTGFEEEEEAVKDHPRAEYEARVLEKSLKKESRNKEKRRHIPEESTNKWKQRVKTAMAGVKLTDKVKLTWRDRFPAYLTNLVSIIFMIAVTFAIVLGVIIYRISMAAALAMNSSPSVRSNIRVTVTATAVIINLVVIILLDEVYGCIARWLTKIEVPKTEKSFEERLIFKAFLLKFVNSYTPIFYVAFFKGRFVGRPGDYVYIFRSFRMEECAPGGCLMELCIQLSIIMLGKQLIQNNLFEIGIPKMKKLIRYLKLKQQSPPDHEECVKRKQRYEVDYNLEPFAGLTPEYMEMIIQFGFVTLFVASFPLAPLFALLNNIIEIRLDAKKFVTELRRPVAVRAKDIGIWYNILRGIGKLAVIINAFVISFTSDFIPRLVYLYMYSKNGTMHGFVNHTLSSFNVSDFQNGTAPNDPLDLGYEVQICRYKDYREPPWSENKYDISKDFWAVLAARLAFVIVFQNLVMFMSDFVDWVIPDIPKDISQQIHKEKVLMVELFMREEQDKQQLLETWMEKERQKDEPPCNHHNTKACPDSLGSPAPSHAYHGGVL
# Chain of UniProt O94806 (whole entry, looked up): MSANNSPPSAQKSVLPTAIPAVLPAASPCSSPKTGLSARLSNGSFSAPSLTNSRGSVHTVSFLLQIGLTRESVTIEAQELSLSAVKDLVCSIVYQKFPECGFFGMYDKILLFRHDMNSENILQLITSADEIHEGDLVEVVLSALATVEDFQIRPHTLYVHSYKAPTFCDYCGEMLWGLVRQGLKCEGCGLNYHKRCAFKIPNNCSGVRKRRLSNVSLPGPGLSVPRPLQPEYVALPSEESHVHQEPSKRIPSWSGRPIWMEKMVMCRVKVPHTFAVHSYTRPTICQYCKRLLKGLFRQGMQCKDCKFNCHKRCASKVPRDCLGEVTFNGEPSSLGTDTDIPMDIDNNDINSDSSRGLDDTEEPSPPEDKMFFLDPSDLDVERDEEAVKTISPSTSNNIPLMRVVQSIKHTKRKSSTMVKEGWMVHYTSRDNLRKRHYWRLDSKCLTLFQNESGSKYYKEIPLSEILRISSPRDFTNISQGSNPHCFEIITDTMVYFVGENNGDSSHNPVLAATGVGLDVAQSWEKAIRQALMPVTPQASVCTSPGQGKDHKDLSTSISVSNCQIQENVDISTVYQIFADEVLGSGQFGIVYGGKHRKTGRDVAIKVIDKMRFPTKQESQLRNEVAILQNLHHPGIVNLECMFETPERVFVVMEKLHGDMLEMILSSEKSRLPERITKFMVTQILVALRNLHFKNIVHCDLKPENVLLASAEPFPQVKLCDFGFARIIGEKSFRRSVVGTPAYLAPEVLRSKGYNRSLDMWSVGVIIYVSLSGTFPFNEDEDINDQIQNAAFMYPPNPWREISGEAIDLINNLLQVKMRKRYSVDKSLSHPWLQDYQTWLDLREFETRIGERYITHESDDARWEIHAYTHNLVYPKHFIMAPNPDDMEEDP
# Chain of UniProt P45983 (whole entry, looked up): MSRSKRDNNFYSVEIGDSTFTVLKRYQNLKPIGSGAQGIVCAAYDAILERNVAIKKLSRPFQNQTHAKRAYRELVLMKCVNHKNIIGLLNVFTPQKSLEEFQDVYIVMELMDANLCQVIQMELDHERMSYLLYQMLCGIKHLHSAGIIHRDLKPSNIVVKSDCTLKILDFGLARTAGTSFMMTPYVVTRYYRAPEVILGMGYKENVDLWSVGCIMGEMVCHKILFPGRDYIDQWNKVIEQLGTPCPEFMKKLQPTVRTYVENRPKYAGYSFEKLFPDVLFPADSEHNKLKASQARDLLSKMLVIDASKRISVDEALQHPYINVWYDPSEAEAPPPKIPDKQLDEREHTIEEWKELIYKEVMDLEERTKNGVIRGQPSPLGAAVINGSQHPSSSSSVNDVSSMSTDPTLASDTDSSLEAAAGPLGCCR
# Chain of UniProt P15735 (whole entry, looked up): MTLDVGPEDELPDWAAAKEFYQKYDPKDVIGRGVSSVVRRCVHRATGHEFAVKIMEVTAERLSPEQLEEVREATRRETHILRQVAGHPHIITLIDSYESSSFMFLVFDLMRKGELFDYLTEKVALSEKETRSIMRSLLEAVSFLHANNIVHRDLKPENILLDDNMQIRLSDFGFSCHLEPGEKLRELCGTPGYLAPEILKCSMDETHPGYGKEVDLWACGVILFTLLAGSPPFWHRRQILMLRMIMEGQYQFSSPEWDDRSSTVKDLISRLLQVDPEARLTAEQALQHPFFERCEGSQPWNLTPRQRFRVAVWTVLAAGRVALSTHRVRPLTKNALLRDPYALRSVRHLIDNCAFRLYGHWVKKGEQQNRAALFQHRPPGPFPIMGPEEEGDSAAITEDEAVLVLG
# Chain of UniProt Q9BQI3 (whole entry, looked up): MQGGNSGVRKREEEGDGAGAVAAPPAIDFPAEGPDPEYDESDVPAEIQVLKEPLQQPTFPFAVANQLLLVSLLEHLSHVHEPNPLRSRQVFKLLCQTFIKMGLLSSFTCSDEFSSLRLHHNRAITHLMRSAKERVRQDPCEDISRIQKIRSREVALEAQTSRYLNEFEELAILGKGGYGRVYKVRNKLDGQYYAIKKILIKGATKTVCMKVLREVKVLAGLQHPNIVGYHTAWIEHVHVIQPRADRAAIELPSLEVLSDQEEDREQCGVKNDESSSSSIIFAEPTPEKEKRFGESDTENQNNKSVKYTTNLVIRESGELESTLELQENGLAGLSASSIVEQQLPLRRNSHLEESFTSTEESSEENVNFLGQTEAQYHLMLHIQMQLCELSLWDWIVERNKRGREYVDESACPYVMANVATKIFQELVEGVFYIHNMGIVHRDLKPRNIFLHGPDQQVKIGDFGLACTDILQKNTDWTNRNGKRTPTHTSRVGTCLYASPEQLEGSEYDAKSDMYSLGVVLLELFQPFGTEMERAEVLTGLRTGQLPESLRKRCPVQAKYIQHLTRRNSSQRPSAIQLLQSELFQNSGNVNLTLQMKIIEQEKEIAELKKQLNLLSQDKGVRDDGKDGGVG
# Chain of UniProt P29320 (whole entry, looked up): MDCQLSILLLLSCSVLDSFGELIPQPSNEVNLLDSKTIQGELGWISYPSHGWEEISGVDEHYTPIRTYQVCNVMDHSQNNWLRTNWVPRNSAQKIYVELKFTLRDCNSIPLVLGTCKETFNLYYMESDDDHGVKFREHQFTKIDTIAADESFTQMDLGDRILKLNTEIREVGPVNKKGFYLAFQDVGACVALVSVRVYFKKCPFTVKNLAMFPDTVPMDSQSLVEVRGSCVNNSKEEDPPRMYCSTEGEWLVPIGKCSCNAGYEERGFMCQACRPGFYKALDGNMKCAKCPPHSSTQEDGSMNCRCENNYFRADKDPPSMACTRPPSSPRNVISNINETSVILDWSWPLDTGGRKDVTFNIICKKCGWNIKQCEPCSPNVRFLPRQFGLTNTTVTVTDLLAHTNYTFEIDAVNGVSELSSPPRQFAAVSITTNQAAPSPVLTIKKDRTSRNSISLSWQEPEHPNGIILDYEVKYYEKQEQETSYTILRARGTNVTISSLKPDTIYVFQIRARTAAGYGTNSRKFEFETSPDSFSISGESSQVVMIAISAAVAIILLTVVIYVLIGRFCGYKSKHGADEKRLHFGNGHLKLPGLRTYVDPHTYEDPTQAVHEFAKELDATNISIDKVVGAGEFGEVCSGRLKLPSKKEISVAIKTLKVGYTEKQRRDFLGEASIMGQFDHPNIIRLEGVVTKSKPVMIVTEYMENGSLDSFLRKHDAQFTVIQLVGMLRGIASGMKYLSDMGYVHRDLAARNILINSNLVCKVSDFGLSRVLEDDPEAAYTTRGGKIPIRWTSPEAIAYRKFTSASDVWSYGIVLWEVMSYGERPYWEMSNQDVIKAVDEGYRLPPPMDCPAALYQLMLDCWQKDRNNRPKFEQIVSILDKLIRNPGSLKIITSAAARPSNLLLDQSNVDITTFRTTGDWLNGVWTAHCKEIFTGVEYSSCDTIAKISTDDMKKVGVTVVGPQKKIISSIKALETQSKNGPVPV
# Chain of UniProt Q9BYT3 (whole entry, looked up): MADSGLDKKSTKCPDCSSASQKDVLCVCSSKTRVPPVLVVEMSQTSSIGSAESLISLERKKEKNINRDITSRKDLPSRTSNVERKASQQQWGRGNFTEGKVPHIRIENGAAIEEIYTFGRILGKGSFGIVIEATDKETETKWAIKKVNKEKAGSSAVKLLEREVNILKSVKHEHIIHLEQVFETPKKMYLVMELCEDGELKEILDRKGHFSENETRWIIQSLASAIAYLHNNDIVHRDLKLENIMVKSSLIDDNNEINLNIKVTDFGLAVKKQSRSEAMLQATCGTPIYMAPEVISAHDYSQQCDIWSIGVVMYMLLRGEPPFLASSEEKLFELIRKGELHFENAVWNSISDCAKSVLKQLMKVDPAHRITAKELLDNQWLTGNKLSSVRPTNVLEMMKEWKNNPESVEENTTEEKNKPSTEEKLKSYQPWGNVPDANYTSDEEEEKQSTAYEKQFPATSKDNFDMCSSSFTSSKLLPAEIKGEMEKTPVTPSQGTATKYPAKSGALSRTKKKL

# Series 1
# Compound: Cc1c(C(=O)O)cc(-c2ccc(C3CCNCC3)cc2)c2ccc(-c3ccc(C(F)(F)F)cc3)cc12
# Method: competition with immobilised ligand
# Tested at: 1 µM
target,read-out,remaining binding [%]
"MAP kinase-interacting serine/threonine-protein kinase 1 (MKNK1, Homo sapiens, UniProt Q9BUB5)",binding,100
"Phosphatidylinositol 4,5-bisphosphate 3-kinase catalytic subunit alpha isoform (PIK3CA, Homo sapiens, UniProt P42336, C420R)",cell-free assay,100
"Phosphatidylinositol 4,5-bisphosphate 3-kinase catalytic subunit gamma isoform (PIK3CG, Homo sapiens, UniProt P48736)",cell-free assay,100
"Eukaryotic translation initiation factor 2-alpha kinase 1 (EIF2AK1, Homo sapiens, UniProt Q9BQI3)",binding,77
"Mitogen-activated protein kinase 8 (MAPK8, Homo sapiens, UniProt P45983)",binding,100
"Serine/threonine-protein kinase D3 (PRKD3, Homo sapiens, UniProt O94806)",binding,100
"Serine/threonine-protein kinase mTOR (MTOR, Homo sapiens, UniProt P42345)",cell-free assay,96
"Ribosomal protein S6 kinase alpha-5, N-terminal kinase domain (RPS6KA5, Homo sapiens, UniProt O75582)",binding,100
"Serine/threonine-protein kinase 33 (STK33, Homo sapiens, UniProt Q9BYT3)",binding,100
"Tyrosine-protein kinase JAK2, JH1 (JAK2, Homo sapiens, UniProt O60674)",binding,100
"Ephrin type-A receptor 3 (EPHA3, Homo sapiens, UniProt P29320)",cell-free assay,100
"Ephrin type-A receptor 6 (EPHA6, Homo sapiens, UniProt Q9UF33)",cell-free assay,100
"eIF-2-alpha kinase GCN2, C-terminal kinase domain (EIF2AK4, Homo sapiens, UniProt Q9P2K8, S808G)",binding,100
"Serine/threonine-protein kinase Nek3 (NEK3, Homo sapiens, UniProt P51956)",binding,85
"Death-associated protein kinase 1 (DAPK1, Homo sapiens, UniProt P53355)",binding,100
"Receptor-type tyrosine-protein kinase FLT3 (FLT3, Homo sapiens, UniProt P36888, ITD)",binding,81
"Phosphorylase b kinase gamma catalytic chain, liver/testis isoform (PHKG2, Homo sapiens, UniProt P15735)",cell-free assay,100
"Testis-specific serine/threonine-protein kinase 3 (TSSK3, Homo sapiens, UniProt Q96PN8)",binding,93
"Phosphatidylinositol 3-kinase C2 domain-containing subunit gamma (PIK3C2G, Homo sapiens, UniProt O75747)",binding,100
"Proto-oncogene tyrosine-protein kinase ROS (ROS1, Homo sapiens, UniProt P08922)",cell-free assay,100
"Serine/threonine-protein kinase tousled-like 1 (TLK1, Homo sapiens, UniProt Q9UKI8)",cell-free assay,100
"Cyclin-dependent kinase 17 (CDK17, Homo sapiens, UniProt Q00537)",binding,100
"Serine/threonine-protein kinase MARK1 (MARK1, Homo sapiens, UniProt Q9P0L2)",binding,100
"Fibroblast growth factor receptor 3 (FGFR3, Homo sapiens, UniProt P22607, G697C)",cell-free assay,100
"Serine/threonine-protein kinase WNK2 (WNK2, Homo sapiens, UniProt Q9Y3S1)",binding,100

# Series 2
# SMILES: CC(C)C[C@@H]1NC(=O)[C@@H](N(C)C(=O)[C@H](CC2CCC2)NC(=O)[C@@H]2C[C@@H](F)CN2C(=O)C2(C(F)(F)F)CC(F)(F)C2)CCCCNC(=O)C2(CC2)NC(=O)[C@H](Cc2cc(Cl)ccc2Cl)N(C)C1=O
# Method: flow cytometry
cell line,tested at,time,setting,added,cleaved PARP positive cells
NCI-H446,60 nM,3 days,without Mps1 inhibitor,,24.1% and 29.6% and 24.3%
NCI-H82,20 nM,72 h,,,4.34% and 2.64% and 3.96%
NCI-H1299,200 nM,72 h,,,0.61% and 0.46% and 1.16%
NCI-H446,20 nM,3 days,,Mps1 inhibitor 3 nM,12.4% and 11.9% and 13.3%
HCC4006,20 nM,72 h,,,1.08% and 1.26% and 0.52%

# Series 3
# Cell line: mouse MPNST tumor cells
# Method: high-content immunofluorescence imaging
# Refers to: nuclear SOX9
# Tested at: 10 µM
# Time: 12 h
# Setting: mean of 2 replicates
# Baseline: DMSO control
# Reading: higher = more nuclear SOX9
SMILES,nuclear SOX9 intensity
COc1ccc(CC2NCCc3c2[nH]c2ccc(C)cc32)c(Cl)c1OC (stereo not shown),168 % of DMSO
CN(C)C(=N)NC(=N)N,95.7 % of DMSO and 104 % of DMSO and 94.7 % of DMSO
c1ccc(C2CN3CCSC3=N2)cc1 (stereo not shown),106 % of DMSO
O=C(CCc1ccncc1)NNC(=O)N1Cc2ccccc2Oc2ccc(Cl)cc21,98.7 % of DMSO
CCc1nc2c(o1)CC(c1ccc(C)cc1C)CC2=O (racemic),106 % of DMSO
CCOc1ccc(-n2c(C(C)N(Cc3cccnc3)C(=O)Cc3ccc(F)c(C(F)(F)F)c3)nc3ncccc3c2=O)cc1 (stereo not shown),99.2 % of DMSO
C#C[C@]1(O)CC[C@H]2[C@@H]3CCC4=CC(=O)CC[C@@H]4[C@H]3CC[C@@]21C,89.8 % of DMSO
COc1ccc2c(c1)c(CC(=O)O)c(C)n2C(=O)c1ccc(Cl)cc1,97.4 % of DMSO
C=CCOc1ccccc1OCC(O)CNC(C)C (stereo not shown),91.7 % of DMSO
Cc1onc(-c2c(Cl)cccc2Cl)c1C(=O)N[C@@H]1C(=O)N2[C@@H]1SC(C)(C)[C@@H]2C(=O)O,90.3 % of DMSO
Cc1oc2ccccc2c1CNC(=O)NCc1cccs1,101 % of DMSO

# Series 4
# Structure (SMILES): C=CCc1ccc(O)c(-c2cc(CC=C)ccc2O)c1
# Read-out: chloride current
# Method: whole-cell voltage clamp
target,action,tested at,setting,IC50
"Anoctamin-1 (ANO1, Homo sapiens, UniProt Q5XXA6, del476-501/R541K)",inhibitor,,R515K mutant at -80 mV,25.3 µM
"Anoctamin-1 (ANO1, Homo sapiens, UniProt Q5XXA6, del476-501/E649D)",inhibitor,,E623D mutant at -20 mV,34.4 µM
"Anoctamin-1 (ANO1, Homo sapiens, UniProt Q5XXA6, del476-501/F627A)",,,membrane voltage 20 mV,18.4 µM
"Anoctamin-1 (ANO1, Homo sapiens, UniProt Q5XXA6, del476-501/E649I)",inhibitor,,E623I mutant at 60 mV,120 µM
"Anoctamin-1 (ANO1, Homo sapiens, UniProt Q5XXA6, del476-501/K629R)",inhibitor,60 mV holding voltage,,244 µM
"Anoctamin-1 (ANO1, Homo sapiens, UniProt Q5XXA6, del476-501/E649K)",inhibitor,,E623K mutant at -20 mV,229 µM

# Series 5
# Cell line: HaCaT
# Tested at: 100 µM
# Time: 60 h
Compound,viability [%]
O=C(O)c1cc(-c2ccc(F)cc2F)ccc1O,92.1
CC(C)C[C@H](NC(=O)[C@@H](O)[C@H](N)Cc1ccccc1)C(=O)O,107
COC(c1ccccc1)(c1ccccc1)[C@H](Oc1nc(C)cc(C)n1)C(=O)O,156
Nc1ccccc1S(N)(=O)=O,143
OC[C@H]1O[C@@H](c2ccc(Cl)c(Cc3ccc(O[C@H]4CCOC4)cc3)c2)[C@H](O)[C@@H](O)[C@@H]1O,125
